Measurements gathered from unrelated publications.
Compare with care: the assays were run in different laboratories. Numbers after ± are the reported error.
Cell line: HT-29

With `COc1ccc(NC(=O)O[C@H]2[C@H](C)O[C@@H](O[C@H]3[C@H](N(C)C)[C@@H](O)[C@H](O[C@H]4[C@@H](CC=O)C[C@@H](C)[C@@H](O[C@H]5CC[C@H](N(C)C)[C@@H](C)O5)/C=C/C=C/C[C@@H](C)OC(=O)C[C@@H](O)[C@@H]4OC)O[C@@H]3C)C[C@@]2(C)O)cc1` the IC50 was > 50000 nM (cell growth or viability, CCK-8; 72 h).
For `Cc1ccc(C(C)C)cc1.O=C([N-]c1nc2ccccc2[nH]1)c1cnccn1.[Cl-].[Ru+2]`, the selectivity index was > 2 (cytotoxicity, MTT; reference: KMST-6 over HT-29).
With `COc1cc(CNC(=O)C[C@H](C)CCC=C(C)C)ccc1OCc1cn(-c2ccc(Cl)cc2Cl)nn1` the growth percent was 82.3% (SRB; 10 µM, 48 h).
The EC50 of `CCc1c2c(nc3ccc(O)cc13)-c1cc3c(c(=O)n1C2)COC(=O)[C@@]3(CC)OC(=O)[C@H](N)C(C)C` is reported as 9180 nM (cell viability, MTT; 72 h).
The IC50 of `CO[C@@H]1[C@@H](O[C@@H]2O[C@H](C)[C@@H](O[C@H]3C[C@@](C)(O)[C@@H](OC(=O)Nc4ccc(C)cc4)[C@H](C)O3)[C@H](N(C)C)[C@H]2O)[C@@H](CC=O)C[C@@H](C)[C@@H](O[C@H]2CC[C@H](N(C)C)[C@@H](C)O2)/C=C/C=C/C[C@@H](C)OC(=O)C[C@H]1O` is reported as 3270 nM (cell growth or viability, CCK-8; 72 h).
`Cc1cc2nc(NC(=O)C3CC3)sc2cc1Oc1ccc(F)c(NC(=O)Cc2cccc(C(F)(F)F)c2)c1` gave an EC50 of 60 ± 7 nM (necroptosis, CellTiter-Glo; added: TNF, SMAC mimetic and zVAD (TSZ)).
`NCCC(=O)N[C@@H](Cc1c[nH]cn1)C(=O)O` gave a viability of 27.8% (MTT; 10 µg/mL, 6 h).
For `CC/C=C\C/C=C\C/C=C\C/C=C\C/C=C\C/C=C\CCC(=O)Nc1ccn(C2OC(CO)C(O)C2(F)F)c(=O)n1` (centres unmarked), the GI50 was 68.3 nM (cell growth or viability, SRB).
With `COc1cc(CNC(=O)C[C@H](C)CCC=C(C)C)ccc1OCc1cn(-c2ccccc2[N+](=O)[O-])nn1` the growth percent was 22.6% (SRB; 10 µM, 48 h).
The viability of `O=C1CCNC(=O)[C@@H]2CCCN2C(=O)CCNC(=O)[C@H](Cc2c[nH]cn2)NC(=O)[C@H](Cc2c[nH]cn2)N1` is reported as 29.3% (MTT; 10 µg/mL, 6 h).
`CSc1ccc(/C=C2/C(C)=C(CC(=O)NCCN(C)C)c3cc(F)ccc32)cc1` gave a CC50 of 650 nM (cell growth or viability).
`Cc1cc2nc(NC(=O)C3CC3)sc2c(C)c1Oc1ccc(F)c(NC(=O)Cc2cccc(C(F)(F)F)c2)c1` gave an EC50 of 145 ± 10 nM (necroptosis, CellTiter-Glo; added: TNF, SMAC mimetic and zVAD (TSZ)).
`COc1cc2ncc3c(c2cc1-c1cnn(C)c1)n(-c1ccc(C#N)cc1F)c(=O)n3C`: CHK1 phosphorylation “no effect” (ATR-CHK1 signaling; concentration not given, added: hydroxyurea).
The EC50 of `O=C(Cc1cccc(C(F)(F)F)c1)Nc1cc(Oc2cc(Br)c3nc(NC(=O)C4CC4)sc3c2)ccc1F` is reported as > 10000 nM (necroptosis, CellTiter-Glo; added: TNF, SMAC mimetic and zVAD (TSZ)).
`COc1cc(CNC(=O)C[C@H](C)CCC=C(C)C)ccc1OCc1cn(-c2ccc(Br)cc2)nn1` gave a growth percent of 94.4% (SRB; 10 µM, 48 h).
`CC(=O)OC[C@H]1O[C@@H](Sc2sc(C(=O)c3ccc(Br)cc3)c(N)c2-c2nc3ccccc3s2)[C@H](OC(C)=O)[C@@H](OC(C)=O)[C@@H]1OC(C)=O` has a growth of 59.8% (SRB; 10 µM, 48 h; reference: untreated).
With `COc1cc(CNC(=O)C[C@H](C)CCC=C(C)C)ccc1O` the growth percent was 104% (SRB; 10 µM, 48 h).
`COc1ccc(C2=Nn3c(NN=C4C(=O)N(C)c5ccc(Br)cc54)nnc3SC2)cc1` has an inhibition of 15% (cell growth or viability, SRB; 10 µM).
`COC(=O)c1c(Oc2ccc(F)c(NC(=O)Cc3cccc(C(F)(F)F)c3)c2)ccc2nc(NC(=O)C3CC3)sc12` has an EC50 of 23 ± 6 nM (necroptosis, CellTiter-Glo; added: TNF, SMAC mimetic and zVAD (TSZ)).
The apoptotic cells of `CC12CCCC(n3cc(C(=O)N4CCCC(N)C4)nn3)(C1)C1CC(C)(C)C1CC2` (centres unmarked) is reported as 69.5% (annexin V/PI flow cytometry; 10 µM, 48 h).
For `CC[C@H](C)[C@@H]1NC(=O)[C@@H](CCC(N)=O)NC(=O)CNC(=O)[C@H](Cc2ccc(O)cc2)N=C[C@H](CC(C)C)NC(=O)[C@H](C(C)C)NC(=O)[C@H](CO)NC1=O`, the inhibition was 80% (20S proteasome activity; 6.7 µM, 2 h).
`COc1cc(CNC(=O)C[C@H](C)CCC=C(C)C)ccc1OCc1cn(-c2ccc(C#N)cc2)nn1` has a growth percent of 77.5% (SRB; 10 µM, 48 h).
The GI50 of `CC(Cc1ccc(Cl)cc1)=C(c1ccc(Cl)cc1)c1ccc(OCCN(C)C)cc1` is reported as 1360 nM (cell growth or viability, SRB).
For `O=C(Cc1cccc(C(F)(F)F)c1)Nc1cc(Oc2cc(Cl)c3nc(NC(=O)C4CC4)sc3c2)ccc1F`, the EC50 was > 10000 nM (necroptosis, CellTiter-Glo; added: TNF, SMAC mimetic and zVAD (TSZ)).
`Cc1nn(-c2ccc(S(=O)(=O)N[C@H](CO)CC(C)C)cc2)c2nn3nnnc3nc12` gave an apoptotic cells of 23.5 ± 2.12% (PI/Hoechst staining; 0.5 µM, 24 h).
`COc1cc(Oc2ccc(F)c(NC(=O)Cc3cccc(C(F)(F)F)c3)c2)cc2sc(NC(=O)C3CC3)nc12` has an EC50 of > 10000 nM (necroptosis, CellTiter-Glo; added: TNF, SMAC mimetic and zVAD (TSZ)).
The viability of `O=C1CCNC(=O)[C@H](Cc2c[nH]cn2)NC(=O)[C@@H]2CCCN2C(=O)[C@H](Cc2c[nH]cn2)NC(=O)CCN1` is reported as 21.3% (MTT; 10 µg/mL, 6 h).
The EC50 of `O=C(Cc1cccc(C(F)(F)F)c1)Nc1cc(Oc2cc(C(=O)NC3CC3)c3nc(NC(=O)C4CC4)sc3c2)ccc1F` is reported as > 10000 nM (necroptosis, CellTiter-Glo; added: TNF, SMAC mimetic and zVAD (TSZ)).
Under “cells in G1 phase”, `C=C1CC(OC(=O)C(C)(O)CCl)C2C(=C)C(=O)OC2C2C1CC(O)C2(O)CCl` (centres unmarked) is recorded as 59.4 ± 2.3% (PI flow cytometry; IC50, 48 h).
